Experimental data pooled from the literature.
Parts stem from different laboratories: compare values within a part only. Substitutions count along the parent as printed.

Sample 1
Target: CCNB1, cyclin fold, Cln2 fusion (human)
Method: yeast growth competition, sequencing
Sample: yeast
Setting: weak parent motif
Reference: not given
Direction: higher = stronger binding
Quantity: normalised enrichment score
Parent: RB1 docking peptide (human); PKPLKKLRFDIEG
Variant = K6L; value = 0.136
Variant = R8A; value = 0.519
Variant = P3R; value = 1.17
Variant = L7P; value = 0.535

Sample 2
Target: Histone acetyltransferase KAT6A, both winged helices, GST fusion (KAT6A, Homo sapiens, UniProt Q92794, residues 1-181)
Method: protein binding microarray
Molecule type: double-stranded DNA, one strand shown
Sample: in vitro
Tested at: not given
Setting: 8-mer, flanks averaged, mean of 2 arrays, mostly near background
Reference: not given
Direction: higher = stronger binding
Quantity: E-score
Construct (chain): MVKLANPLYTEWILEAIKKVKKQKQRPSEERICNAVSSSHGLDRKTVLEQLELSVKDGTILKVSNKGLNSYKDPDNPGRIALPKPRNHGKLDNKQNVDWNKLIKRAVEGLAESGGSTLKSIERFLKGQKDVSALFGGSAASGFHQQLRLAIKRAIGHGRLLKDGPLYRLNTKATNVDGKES
Strand = AGATTTGC; value = 0.00078
Strand = AGGGTTCG; value = -0.129
Strand = AATAAGAC; value = -0.198
Strand = CTTTGGGA; value = -0.242
Strand = GCTTGCTA; value = -0.0928

Sample 3
Target: RING finger protein unkempt homolog, zinc fingers 1-6, GST-SBP tag (UNK, Homo sapiens, UniProt Q9C0B0, residues 30-357)
Method: RNA Bind-n-Seq
Molecule type: RNA
Sample: in vitro
Tested at: not given
Setting: RNA with constant flanks, human and mouse sites, ends assumed
Reference: input RNA pool
Direction: higher = stronger binding
Quantity: bound/input enrichment
Residues (chain): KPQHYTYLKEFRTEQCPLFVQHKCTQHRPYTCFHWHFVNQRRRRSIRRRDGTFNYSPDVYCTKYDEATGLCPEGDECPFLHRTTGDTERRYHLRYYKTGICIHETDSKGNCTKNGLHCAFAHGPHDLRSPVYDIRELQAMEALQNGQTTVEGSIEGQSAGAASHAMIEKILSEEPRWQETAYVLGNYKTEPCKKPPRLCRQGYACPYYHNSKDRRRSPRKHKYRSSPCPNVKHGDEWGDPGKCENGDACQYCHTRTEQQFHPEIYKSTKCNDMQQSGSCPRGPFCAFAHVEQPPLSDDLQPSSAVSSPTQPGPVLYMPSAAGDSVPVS
Strand = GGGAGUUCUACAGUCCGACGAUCUACCAGCAGGCCCUGCUGCUCCUGGGGGCCGCCGCCCUGGCCUGCCUCGCCCUGGACCUCCUCUUCCUGCUCUUCUACUCCUUCUGGCUGUGCUGCCGGCGGCGCAAGAGCGAGGAGCACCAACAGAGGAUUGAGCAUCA; value = 0.088 ratio
Strand = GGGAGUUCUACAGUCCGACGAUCCCUGCCUUCUCAUCUUUAUAGUGCCACGAUUUAUACAGUCCUGUGUCUGACCUGUCAUUUCAUAGCCUGCAGUUCUUGCCAUUGGCACACUUAGAUUUGUCUUCACCCACCAGCUUCGUUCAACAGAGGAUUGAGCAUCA; value = 0.604 ratio
Strand = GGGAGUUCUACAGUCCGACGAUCGCUAUCUAUGUCCAAGCAUUGAUAUUUCGCCUAGAAGGAAAUAUCCAAGAAUCCCUAGAACUCUUCCAGACAUGUGCAGUUCUUAGUCCUCAGAGUGCUGAUAACCUCAAGCAGGUGGCCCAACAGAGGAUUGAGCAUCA; value = 0.464 ratio
Strand = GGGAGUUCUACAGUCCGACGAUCUGGAAGUUGGAUACACUUUGUGACUUGUACGAGACACUGACCAUUACACAGGCUGUUAUUUUUCUCAAUACGAGGCGCAAGGUGGACUGGCUGACUGAGAAGAUGCAUGCCAGAGACUUCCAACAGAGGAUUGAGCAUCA; value = 0.0868 ratio
Strand = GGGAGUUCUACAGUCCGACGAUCCCAGGGACCCCCACUCGGACACCUUCCAGAAUGGCGCCUGGAGCCCUGACUGCCAAACCCCCGCUUGCCCCCAAGCCGGGGACCACAGUGGCUUCAGGAGUGACUGCACGGGGUGGAGUACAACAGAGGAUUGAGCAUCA; value = 0.131 ratio

Further values, each from its own experiment
Substance = PhoQ, residues 284 288 289 292 302 303 SASVAL; target = PhoP, residues 12 14 15 18 19 AWHSL (Escherichia coli, UniProt P23836); test = Sort-seq, refers to: YFP reporter; system = E. coli; setting = PhoQ-PhoP variant library, together with: 10 µM Mg2+; how to read = reference: high Mg2+ state, higher = stronger signaling; quantity = fold induction; value = 7.12

Repeated from above (sample 2):
Strand = AGGGTTCG; value = -0.129
Strand = AATAAGAC; value = -0.198
